Measured values pooled from the literature.
Each line is one published result; not all experiments were run side by side. Numbers after ± are the reported error.

`[64Cu+2].c1cnc(CNCc2ccc(CN3CCCN4CCNCCCN(CC4)CC3)cc2)nc1` gave a tissue uptake of 1.81 ± 0.19 %ID/g (CXCR4; NOD/SCID mouse, U87 and U87-stb-CXCR4 xenografts, heart; iv, 120 min, ex vivo).
`N#Cc1ccc(-c2cn([C@@H]3O[C@H](CO)[C@@H](O)[C@H]3O)c3ncnc(N)c23)cc1` has an EC50 of greater than 200 µM (HEK; cytotoxicity).
`FC(F)(F)c1ccnc(-c2cc(C(F)(F)F)ccn2)c1.FC(F)(F)c1ccnc(-c2cc(C(F)(F)F)ccn2)c1.[Cl-].[Cl-].[Ru+2].c1csc(-c2ccc(-c3ccc(-c4ccc(-c5nc6c7cccnc7c7ncccc7c6[nH]5)s4)s3)s2)c1` gave a phototherapeutic index of 90 (SK-MEL-28; cell viability; hypoxia, together with: green light 523 nm; baseline: dark EC50 over light EC50).
With `CCC(=C(c1ccc(Cl)cc1)c1ccc(OCCN2CCCCC2)cc1)c1ccccc1` the growth inhibition was 22.8% (NCI-60 tumour cell lines; 10 µM, mean over cell lines).
`CC(=O)[O-].O.O.O.O.[Co+2].[O-]c1ccc(Br)cc1C=NCCN1CCOCC1` — result for “inhibition zone diameter”: 20 mm (Aspergillus niger; 20 µL of 100 µM per disc).
`CCOC(=O)C1=C(C)NC(=O)N[C@@H]1/C=C/c1ccc(OC)cc1` gave a selectivity ratio of greater than 10 fold (FR2 and A549; MTT; baseline: IC50 FR2 over IC50 A549).
`CCNC(=O)Nc1ccc(S(=O)(=O)Oc2ccccc2CC)cc1`: “CD11b positive cells” 38% (MOLM-13; differentiation, flow cytometry; 2-fold IC50, 120 h).
The relative potency of `Cc1ccc(F)cc1NS(=O)(=O)c1cccc(/C=C/C(=O)NO)c1` is reported as 0.835 (MOPC-315; cell growth; 24 h; baseline: belinostat).
`COc1cc(CNC(=O)C[C@H](C)CCC=C(C)C)ccc1O` gave a growth percent of 77% (SF-268 CNS cancer cells; SRB; 10 µM, 48 h).
`Cc1nc(C)c(C=[N+]([O-])C(C)(C)C)nc1C`: “increase in protein level” 73% (Western blot, refers to: MEF2D; MPTP mouse model, substantia nigra cytosol; 30 mg/kg).
`COc1cc(CNC(=O)C[C@H](C)CCC=C(C)C)ccc1OCc1cn(-c2ccc(Cl)c(Cl)c2)nn1` has a growth percent of 53.4% (OVCAR-4 ovarian cancer cells; SRB; 10 µM, 48 h).
`O=C(/C=C/c1cccc(S(=O)(=O)Nc2ccc(F)cc2)c1)NO` gave a relative potency of 1.02 (MOPC-315; cell growth; 24 h; baseline: belinostat).
`COc1ccc(-c2ocnc2-c2cc(Br)c(OC)c(OC)c2)cc1OCCCC(=O)NO`: “time to inhibition” 24 h (TFK1, EGI-1; cell proliferation; 0.1 to 1.0 µM).
For `Cc1cc([C@H](C(=O)N2C[C@H](O)C[C@H]2C(=O)N[C@@H](CC(=O)N2CCC(N3CCC(C#Cc4ccc(C(=O)N[C@H]5C(C)(C)[C@H](Oc6ccc(C#N)c(Cl)c6)C5(C)C)cc4)CC3)CC2)c2ccc(-c3scnc3C)cc2)C(C)C)on1`, “time to robust apoptosis” read 48 h (MDA-MB-453 and HCC1428; flow cytometry; 1 µM).
`CC[C@H](C)[C@H](NC(=O)[C@@H](NC(=O)[C@@H](N)C(C)C)C(C)C)C(=O)NCC(N)=O` gave a viability of 80.7% (PC-12; Aβ42-induced neurotoxicity, inhibitor, MTT; concentration not given, 6 h, 37 °C, peptide to Aβ42 1:1, together with: Aβ42 2 µM; baseline: untreated cells).
Under viability, `COc1cc2c(OC3OCC(OC)C(OC)C3OC(=O)c3ccc(Br)cc3)c3c(c(-c4ccc5c(c4)OCO5)c2cc1OC)C(=O)OC3` (stereo not shown) is recorded as “decreased” (CAL-27 and FaDu; MTT; 1 µM, 48 and 72 h).
`COc1cc2c(cc1C)NC(=O)C2=Cc1c(Cl)[nH]c2c1ccc1ccccc12` gave a TGI of 1 µM (leukaemia subpanel of NCI-60; 48 h).
The glucose consumption of `CC(C)=C1CC[C@]2(COC(=O)c3ccccc3)[C@@H](OC(=O)c3ccccc3)/C=C(\C)CC[C@@H]3O[C@@]3(C)C[C@@H](OC(=O)c3cccnc3)[C@@H]12` is reported as 6.98 ± 0.72 mM (HepG2, palmitic acid-induced insulin resistance; 10.0 µM, 24 h).
Under protein level, `COc1ccc2c(c1)C(=C1Nc3ccccc3C1=NOCC(O)CO)C(=O)N2` (stereo not shown) is recorded as “decreased” (PANC-1 and MIA PaCa-2; Western blot, refers to: Mcl-1; concentration not given, 24 h).
For `CC(=O)O[C@H]1CC[C@]2(C)[C@H]3C(=O)C=C4[C@@H]5C[C@@](C)(C(=O)OCc6ccccc6)CC[C@]5(C)CC[C@@]4(C)[C@]3(C)CC[C@H]2C1(C)C`, “MDC fluorescence intensity” read 1910 (HepG2; autophagy, flow cytometry; 8 µM, 24 h, unit not given; baseline: untreated).
With `COc1ccc([C@@H]2CC(=O)c3c(O)cc(O[C@@H]4O[C@H](CO[C@@H]5O[C@@H](C)[C@H](O)[C@@H](O)[C@H]5O)[C@@H](O[C@H]5O[C@H](CO)[C@@H](O)[C@H](O)[C@H]5O)[C@H](O)[C@H]4O)cc3O2)cc1O` the gap closure was 9.28 ± 1.49% (A549; cell migration, scratch; 50 µg/mL, 72 h).
`COc1ccc(-c2cc(C(F)(F)F)nc(NCc3ccc(Cl)cc3)n2)cc1OC`: insulin secretion “increased” (rat INS-1 832/13 cells; 20 µM, no GLP-1, together with: 15 mM glucose; baseline: DMSO).
`[Cl][Pt-]1([Cl])[S]C(Nc2ccccc2)=N[N+]1=Cc1cccs1` gave a cytotoxic concentration of no less than 20 µM (HEL human lung fibroblasts; altered cell morphology, microscopy; confluent cultures).
The glucose consumption of `Cc1cc(O)c2c(C(=O)[O-])[n+]3n(c2c1)CCCC3` is reported as 6.75 ± 0.51 mM (HepG2, palmitic acid-induced insulin resistance; 2.5 µM, 24 h).
`O=Cc1c(O)ccc2ccccc12`: “log2 fold change” -2.92 (HUVEC; RNA sequencing, refers to: TYMS; 75 µM, 24 h; baseline: DMSO).
`Nc1c(S(=O)(=O)O)cc(Nc2cccc(S(N)(=O)=O)c2)c2c1C(=O)c1ccccc1C2=O` — result for mRNA level: “increased” (primary mouse articular chondrocytes; real-time PCR, refers to: Prg4; 25 µM, micromass culture).
For `C(=C/c1ccccc1)/c1ccccc1`, “lowest effective concentration” read 2 µM (THP-1; cell proliferation, CellTiter-Glo; 24 h, lowest dose with significant inhibition; baseline: vehicle).
The GSH content of `CC(=O)Nc1ccc(OC(=O)CCC(=O)[O][Pt-2]23([O]C(=O)CCC(=O)Oc4ccc(NC(C)=O)cc4)([NH2+][C@@H]4CCCC[C@H]4[NH2+]2)[O]C(=O)C(=O)[O]3)cc1` is reported as 54.5% (4T1; 2 µM, 24 h; baseline: untreated).
The potency ratio of `Cc1ccc(C(=O)OCCCn2ccc(=O)c(OCc3ccccc3)c2C)cc1` is reported as roughly 2 fold (PC-12; cell growth, MTT; baseline: docetaxel over compound IC50).
`COc1cc(CNC(=O)C[C@H](C)CCC=C(C)C)ccc1OCc1cn(-c2ccc(F)cc2)nn1` has a growth percent of 73.1% (OVCAR-4 ovarian cancer cells; SRB; 10 µM, 48 h).
For `Cc1cc(-c2ccccc2)c2ccc3c(-c4ccccc4)cc(C)nc3c2n1.[Cl-].[Cl-].[Ru+2].c1ccc(-c2ccccn2)nc1.c1ccc(-c2ccccn2)nc1`, “late apoptotic necrotic cells” read 21% (B16-F10; annexin V/PI; 10 µM, 24 h, dark).
`CCCC(CCC)C(=O)[O][Pt]([NH2])([NH2])([Cl])([Cl])[O]C(=O)c1ccccc1OC(C)=O` gave a selectivity index of 0.6 (HEK293 and LoVo; cytotoxicity, MTT; baseline: IC50 HEK293 over IC50 LoVo).
The glucose consumption of `C[C@@H]1O[C@@H](O[C@H]2[C@H](O[C@H]3CC[C@@]4(C)C(CC[C@]5(C)C4CC=C4C6CC(C)(C)CC[C@]6(C(=O)O[C@@H]6O[C@H](CO)[C@@H](O)[C@H](O)[C@H]6O)CC[C@]45C)[C@]3(C)CO)OC[C@H](O)[C@@H]2O)[C@H](O)[C@H](O[C@@H]2OC[C@@H](O)[C@H](O)[C@H]2O)[C@H]1O` (stereo partly shown) is reported as 8.59 ± 1.46 mM (HepG2, palmitic acid-induced insulin resistance; 10.0 µM, 24 h).
For `CSC(=S)N/N=C(\C)c1ccc(S(=O)(=O)N2CCC(C)CC2)cc1`, the necrotic cells was 1.58% (HepG2; annexin V/PI staining; IC50, 72 h).
`C=C1[C@H](O)CC(=C/C=C2\CCC[C@]3(C)[C@@H]([C@@H](C)CCCC)CC[C@@H]23)C[C@H]1O` has an EC50 ratio of 2.5 (HL-60; cell differentiation, NBT reduction; baseline: compound over 1α,25-dihydroxyvitamin D3).
Under PARP cleavage, `Nc1ncc(-c2cnn(C3CCNCC3)c2)cc1-c1nc2ccc(O)cc2o1` is recorded as “increased” (HEL 92.1.7; western blot; concentration not given, 24 h; baseline: untreated).
`Cc1cccc(O[C@H]2CCC[C@@H](C(C)CNCc3ccncc3)C2)c1` (relative stereo): NADPH level “increased” (MC65 Tet-Off cells; concentration not given, dose-dependent).
`O=C(NCCN1C(=O)CCC1=O)[O][Pt]12([O]C(=O)NCCN3C(=O)CCC3=O)([NH][C@@H]3CCCC[C@H]3[NH]1)[O]C(=O)C(=O)[O]2`: “cellular platinum uptake” roughly 100 fold (CT26; ICP-MS; 10 µM, pre-incubated in FCS; baseline: oxaliplatin over compound).
`COc1cc(CNC(=O)C[C@H](C)CCC=C(C)C)ccc1OCc1cn(-c2ccccc2[N+](=O)[O-])nn1` gave a growth percent of 31.7% (MDA-MB-468 breast cancer cells; SRB; 10 µM, 48 h).
For `O=C(NCCCCc1ccccc1)n1c(=O)oc2cc(-c3ccc(F)cc3)ccc21`, sphingosine level read “decreased” (SW-403 and RAW264.7; 0.1 to 20 µM, 3 h).
For `CCNc1cc2c(cc1C)C1(c3cc(C)c(NCC)cc3O2)c2ccccc2C(=O)N1N=Cc1c[c-]c(-c2ccccn2)cc1.Cc1c(C)c(-c2ccc(-c3ccccc3)cc2)[c-](C)c1C.[Cl-].[Ir+3]`, “NF-κB p65 protein level” read “increased” (A549; flow cytometry; concentration not given, 24 h; baseline: untreated).
For `Fc1ccc(Nc2nc(NC3CCCCC3)c3ccccc3n2)cc1F`, “salmeterol inhibition of migration” read “increased” (HASM; scratch; 1 µM, together with: salmeterol 10 µM).
`CCC(=C(c1ccc(Cl)cc1)c1ccc(OCCN(CC)CC)cc1)c1ccc(OC)cc1` gave a growth inhibition of 48% (NCI-60 tumour cell lines; 10 µM, mean over cell lines).
`COc1cc(CNC(=O)C[C@H](C)CCC=C(C)C)ccc1OCc1cn(-c2ccc(C#N)cc2)nn1` gave a growth percent of 71.6% (SF-268 CNS cancer cells; SRB; 10 µM, 48 h).
`CC(=O)OC[C@H]1O[C@@H](Sc2sc(C(=O)c3ccc(Br)cc3)c(N)c2-c2nc3ccccc3s2)[C@H](OC(C)=O)[C@@H](OC(C)=O)[C@H]1OC(C)=O` has a growth percent of 80.6% (MDA-MB-231 breast cancer; SRB; 10 µM, 48 h).
For `CC(=O)c1c(C)c2cnc(Nc3ccc(N4CCNCC4)cn3)nc2n(C2CCCC2)c1=O`, “maximum specific productivity” read no more than 110 pg/cell/day (recombinant CHO antibody-producing panel).
For `COc1ccc(CC(C)=C(c2ccc(Cl)cc2)c2ccc(OCCCN(C)C)cc2)cc1`, the growth inhibition was 31.5% (NCI-60 tumour cell lines; 10 µM, mean over cell lines).
`CN1CCC(N[C@@H]2CCc3[nH]c4c(C(N)=O)ccc(-c5ccccc5Cl)c4c3C2)CC1` — result for protein level: “increased” (RKO; western blot, refers to: p21; concentration not given; baseline: untreated).
The growth percent of `COc1cc(CNC(=O)C[C@H](C)CCC=C(C)C)ccc1OCc1cn(-c2ccc(Br)cc2)nn1` is reported as 47.5% (OVCAR-8 ovarian cancer cells; SRB; 10 µM, 48 h).
For `CC(C)=CCc1c(O)cc(CO)cc1O`, the glucose consumption was 4.51 ± 0.76 mM (HepG2, palmitic acid-induced insulin resistance; 15 µM, 24 h).
`CC(Cc1ccc(Cl)cc1)=C(c1ccc(Cl)cc1)c1ccc(OCCN2CCCCCC2)cc1` gave a growth inhibition of 17% (NCI-60 tumour cell lines; 10 µM, mean over cell lines).
`COc1cc(CNC(=O)C[C@H](C)CCC=C(C)C)ccc1OCc1cn(-c2ccccc2)nn1` has a growth percent of 108% (OVCAR-8 ovarian cancer cells; SRB; 10 µM, 48 h).
Under protein level, `C=CC(=O)Nc1cc(Nc2nccc(-c3c(-c4cccc(OC)c4)n(C)c4ccccc34)n2)c(OC)cc1N(C)CCN(C)C` is recorded as “increased” (H1975; Western blot, refers to: cleaved caspase-3; concentration not given, 24 h).
For `COc1cc(CNC(=O)C[C@H](C)CCC=C(C)C)ccc1OCc1cn(-c2ccc([N+](=O)[O-])cc2)nn1`, the growth percent was 76.2% (Malme-3M melanoma cells; SRB; 10 µM, 48 h).
`Nc1ncnc2c1c(-c1ccc(OC(F)(F)F)cc1)cn2[C@@H]1O[C@H](CO)[C@@H](O)[C@H]1O` has an EC50 of greater than 200 µM (HEK; cytotoxicity).

A few entries again:
`CCOC(=O)C1=C(C)NC(=O)N[C@@H]1/C=C/c1ccc(OC)cc1` gave a selectivity ratio of greater than 10 fold (FR2 and A549; MTT; baseline: IC50 FR2 over IC50 A549).
`CCNC(=O)Nc1ccc(S(=O)(=O)Oc2ccccc2CC)cc1`: “CD11b positive cells” 38% (MOLM-13; differentiation, flow cytometry; 2-fold IC50, 120 h).
The relative potency of `Cc1ccc(F)cc1NS(=O)(=O)c1cccc(/C=C/C(=O)NO)c1` is reported as 0.835 (MOPC-315; cell growth; 24 h; baseline: belinostat).
`COc1cc(CNC(=O)C[C@H](C)CCC=C(C)C)ccc1O` gave a growth percent of 77% (SF-268 CNS cancer cells; SRB; 10 µM, 48 h).
`Cc1nc(C)c(C=[N+]([O-])C(C)(C)C)nc1C`: “increase in protein level” 73% (Western blot, refers to: MEF2D; MPTP mouse model, substantia nigra cytosol; 30 mg/kg).
